Experimental data pooled from the literature.
Protocols differ between the studies behind these lines. Numbers after ± are the reported error.
SLC6A4: Sodium-dependent serotonin transporter (SLC6A4, Homo sapiens, UniProt P31645)
UniProt P31645, sequence (whole entry, looked up): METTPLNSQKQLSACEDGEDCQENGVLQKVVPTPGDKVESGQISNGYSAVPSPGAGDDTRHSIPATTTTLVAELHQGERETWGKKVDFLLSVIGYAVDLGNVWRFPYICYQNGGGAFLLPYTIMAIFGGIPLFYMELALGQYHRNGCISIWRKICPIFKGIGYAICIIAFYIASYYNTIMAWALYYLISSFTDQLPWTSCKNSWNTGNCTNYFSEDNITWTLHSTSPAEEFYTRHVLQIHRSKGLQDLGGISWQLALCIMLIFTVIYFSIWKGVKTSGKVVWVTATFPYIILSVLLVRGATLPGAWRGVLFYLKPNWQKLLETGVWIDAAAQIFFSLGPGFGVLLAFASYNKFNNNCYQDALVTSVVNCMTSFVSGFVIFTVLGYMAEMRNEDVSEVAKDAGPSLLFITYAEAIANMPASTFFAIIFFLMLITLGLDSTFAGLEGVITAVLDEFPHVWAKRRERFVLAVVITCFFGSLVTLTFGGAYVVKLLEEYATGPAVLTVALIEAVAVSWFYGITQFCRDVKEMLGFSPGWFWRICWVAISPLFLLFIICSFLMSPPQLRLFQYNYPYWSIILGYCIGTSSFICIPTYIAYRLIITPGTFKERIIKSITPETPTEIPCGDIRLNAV
nadD: Probable nicotinate-nucleotide adenylyltransferase (nadD, Mycobacterium tuberculosis, UniProt P9WJJ5)
UniProt P9WJJ5, sequence (whole entry, looked up): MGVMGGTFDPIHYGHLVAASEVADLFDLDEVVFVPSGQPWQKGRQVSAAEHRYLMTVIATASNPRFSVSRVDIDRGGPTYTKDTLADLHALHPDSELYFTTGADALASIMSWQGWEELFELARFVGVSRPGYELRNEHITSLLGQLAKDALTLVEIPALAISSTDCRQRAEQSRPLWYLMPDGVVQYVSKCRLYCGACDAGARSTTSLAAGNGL
UniProt P36544, sequence (whole entry, looked up): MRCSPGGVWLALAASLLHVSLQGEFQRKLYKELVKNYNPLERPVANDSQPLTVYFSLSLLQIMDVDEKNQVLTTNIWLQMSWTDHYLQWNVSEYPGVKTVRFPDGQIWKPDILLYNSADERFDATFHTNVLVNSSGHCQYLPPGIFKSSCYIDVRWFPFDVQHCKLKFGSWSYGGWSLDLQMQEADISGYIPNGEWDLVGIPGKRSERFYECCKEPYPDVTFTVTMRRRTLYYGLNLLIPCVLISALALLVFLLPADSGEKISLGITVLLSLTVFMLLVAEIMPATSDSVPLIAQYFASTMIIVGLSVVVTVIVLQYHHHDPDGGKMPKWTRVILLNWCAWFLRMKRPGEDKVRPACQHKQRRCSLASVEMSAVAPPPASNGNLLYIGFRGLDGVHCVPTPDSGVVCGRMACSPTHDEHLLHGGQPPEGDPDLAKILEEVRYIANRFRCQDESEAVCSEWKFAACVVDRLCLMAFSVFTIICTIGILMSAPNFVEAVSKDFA
UniProt P17865, sequence (whole entry, looked up): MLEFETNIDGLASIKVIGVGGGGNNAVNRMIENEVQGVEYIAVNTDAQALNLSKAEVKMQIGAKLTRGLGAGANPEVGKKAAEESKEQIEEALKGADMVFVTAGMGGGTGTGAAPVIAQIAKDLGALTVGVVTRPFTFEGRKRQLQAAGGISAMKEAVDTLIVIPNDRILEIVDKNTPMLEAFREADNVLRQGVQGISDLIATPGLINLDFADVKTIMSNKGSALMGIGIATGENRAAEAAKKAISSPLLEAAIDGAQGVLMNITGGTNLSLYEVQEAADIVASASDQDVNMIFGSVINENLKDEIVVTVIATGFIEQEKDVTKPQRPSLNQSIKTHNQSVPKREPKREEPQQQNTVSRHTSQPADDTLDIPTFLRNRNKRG
UniProt O95180, sequence (whole entry, looked up): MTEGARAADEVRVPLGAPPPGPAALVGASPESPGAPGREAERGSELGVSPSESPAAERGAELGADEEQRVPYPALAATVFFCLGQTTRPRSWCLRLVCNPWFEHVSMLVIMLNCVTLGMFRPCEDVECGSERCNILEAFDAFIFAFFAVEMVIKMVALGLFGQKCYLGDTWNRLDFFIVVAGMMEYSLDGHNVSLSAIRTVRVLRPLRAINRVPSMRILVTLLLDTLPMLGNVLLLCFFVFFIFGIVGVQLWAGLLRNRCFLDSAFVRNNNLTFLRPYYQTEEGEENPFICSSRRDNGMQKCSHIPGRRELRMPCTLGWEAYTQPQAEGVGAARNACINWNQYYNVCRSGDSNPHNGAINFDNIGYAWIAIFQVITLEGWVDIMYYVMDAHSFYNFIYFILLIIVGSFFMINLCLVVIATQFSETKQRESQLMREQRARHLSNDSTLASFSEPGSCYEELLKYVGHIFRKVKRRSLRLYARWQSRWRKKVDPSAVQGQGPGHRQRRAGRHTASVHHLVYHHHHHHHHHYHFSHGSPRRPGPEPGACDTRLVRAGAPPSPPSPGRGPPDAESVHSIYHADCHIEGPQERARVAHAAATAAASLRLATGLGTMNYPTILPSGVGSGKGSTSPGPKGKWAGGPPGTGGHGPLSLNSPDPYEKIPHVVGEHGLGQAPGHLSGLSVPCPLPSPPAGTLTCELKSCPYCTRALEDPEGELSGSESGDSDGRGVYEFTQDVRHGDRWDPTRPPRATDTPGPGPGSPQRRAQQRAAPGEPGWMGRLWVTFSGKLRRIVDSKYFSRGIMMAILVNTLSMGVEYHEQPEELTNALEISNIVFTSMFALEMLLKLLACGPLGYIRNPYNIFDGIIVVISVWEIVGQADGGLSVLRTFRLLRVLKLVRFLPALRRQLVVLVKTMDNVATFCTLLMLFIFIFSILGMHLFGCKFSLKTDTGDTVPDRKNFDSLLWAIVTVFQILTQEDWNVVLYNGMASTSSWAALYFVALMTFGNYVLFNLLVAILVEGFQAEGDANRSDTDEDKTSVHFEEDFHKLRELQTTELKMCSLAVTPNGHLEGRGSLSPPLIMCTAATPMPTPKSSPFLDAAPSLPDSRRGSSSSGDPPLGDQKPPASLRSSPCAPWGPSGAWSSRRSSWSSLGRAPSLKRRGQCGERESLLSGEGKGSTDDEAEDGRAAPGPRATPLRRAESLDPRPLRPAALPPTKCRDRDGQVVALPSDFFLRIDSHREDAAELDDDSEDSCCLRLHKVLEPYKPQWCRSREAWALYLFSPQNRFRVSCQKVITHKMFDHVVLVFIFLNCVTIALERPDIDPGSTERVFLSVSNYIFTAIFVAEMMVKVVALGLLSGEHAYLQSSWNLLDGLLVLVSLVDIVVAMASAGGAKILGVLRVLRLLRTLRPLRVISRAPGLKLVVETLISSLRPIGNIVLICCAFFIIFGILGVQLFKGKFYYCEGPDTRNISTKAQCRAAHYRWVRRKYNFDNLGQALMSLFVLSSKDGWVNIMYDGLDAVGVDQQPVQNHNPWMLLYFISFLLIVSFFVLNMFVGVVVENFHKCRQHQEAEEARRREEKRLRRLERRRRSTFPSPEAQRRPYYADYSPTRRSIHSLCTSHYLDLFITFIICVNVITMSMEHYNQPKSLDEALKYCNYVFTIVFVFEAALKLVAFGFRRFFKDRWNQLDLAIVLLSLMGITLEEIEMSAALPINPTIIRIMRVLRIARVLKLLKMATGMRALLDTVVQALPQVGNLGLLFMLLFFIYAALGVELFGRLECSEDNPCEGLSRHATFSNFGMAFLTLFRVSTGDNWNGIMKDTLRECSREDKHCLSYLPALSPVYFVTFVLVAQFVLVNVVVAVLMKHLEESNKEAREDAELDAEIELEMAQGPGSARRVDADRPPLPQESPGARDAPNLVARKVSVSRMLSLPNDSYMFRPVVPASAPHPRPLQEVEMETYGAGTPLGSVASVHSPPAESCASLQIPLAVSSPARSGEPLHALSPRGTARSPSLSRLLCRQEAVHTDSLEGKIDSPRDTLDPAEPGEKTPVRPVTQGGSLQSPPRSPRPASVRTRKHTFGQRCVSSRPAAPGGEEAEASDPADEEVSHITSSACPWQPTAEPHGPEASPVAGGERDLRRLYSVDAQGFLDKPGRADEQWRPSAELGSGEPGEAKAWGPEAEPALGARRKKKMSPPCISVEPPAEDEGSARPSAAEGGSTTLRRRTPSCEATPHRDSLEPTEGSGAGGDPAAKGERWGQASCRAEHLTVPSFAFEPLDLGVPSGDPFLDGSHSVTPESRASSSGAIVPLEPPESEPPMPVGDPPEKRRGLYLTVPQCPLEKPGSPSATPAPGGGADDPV
UniProt P17787, sequence (whole entry, looked up): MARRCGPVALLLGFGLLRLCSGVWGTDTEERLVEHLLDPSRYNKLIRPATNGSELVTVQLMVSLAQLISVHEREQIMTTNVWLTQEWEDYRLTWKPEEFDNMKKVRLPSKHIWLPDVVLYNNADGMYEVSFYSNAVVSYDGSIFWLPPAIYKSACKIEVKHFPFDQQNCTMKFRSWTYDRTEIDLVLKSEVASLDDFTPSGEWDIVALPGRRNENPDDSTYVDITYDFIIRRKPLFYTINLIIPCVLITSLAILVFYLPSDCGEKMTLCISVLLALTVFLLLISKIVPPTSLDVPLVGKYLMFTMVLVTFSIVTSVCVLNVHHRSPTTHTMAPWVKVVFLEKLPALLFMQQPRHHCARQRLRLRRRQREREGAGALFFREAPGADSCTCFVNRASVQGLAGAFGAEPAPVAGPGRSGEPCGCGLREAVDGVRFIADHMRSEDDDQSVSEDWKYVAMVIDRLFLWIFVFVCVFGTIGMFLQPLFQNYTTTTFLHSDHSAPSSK
UniProt P9WFX1, sequence (whole entry, looked up): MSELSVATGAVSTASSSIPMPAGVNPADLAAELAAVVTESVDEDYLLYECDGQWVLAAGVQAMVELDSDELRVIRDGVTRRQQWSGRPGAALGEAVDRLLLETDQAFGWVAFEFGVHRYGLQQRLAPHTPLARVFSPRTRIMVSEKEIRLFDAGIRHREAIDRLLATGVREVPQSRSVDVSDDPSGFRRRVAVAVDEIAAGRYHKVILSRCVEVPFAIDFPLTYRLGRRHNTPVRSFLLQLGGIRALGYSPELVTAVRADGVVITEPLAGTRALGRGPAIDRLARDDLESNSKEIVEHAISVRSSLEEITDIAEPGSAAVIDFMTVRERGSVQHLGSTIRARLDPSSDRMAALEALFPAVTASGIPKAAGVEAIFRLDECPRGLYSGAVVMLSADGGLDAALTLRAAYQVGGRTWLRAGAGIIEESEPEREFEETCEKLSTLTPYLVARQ

Molecule	target	assay	test system	conditions	how to read	IC50 [µM]
CC#CCOC(=O)c1c(C)nc2sc3c(c2c1N)CCC(O)C3 (stereo not shown)	ERRα (human)	reporter gene, antagonist, luciferase reporter qHTS	–	–	–	0.53
CNC(C)C(=O)c1cccc(C)c1 (stereo not shown)	SLC6A4	transporter uptake, inhibitor, radiometric	–	–	–	4.5
COCCC1CC2CN3CCc4c([nH]c5ccccc45)C(C(=O)OC)(C2)C13 (racemic)	Neuronal acetylcholine receptor subunit alpha-7 (CHRNA7, Homo sapiens, UniProt P36544)	calcium influx, antagonist	GH3-hα7	5 min, with: (±)-epibatidine 1.0 µM	–	34.7 ± 5
COc1ccc(OCc2n(CC(=O)OC3CC(C)CCC3C(C)C)c3ccccc3[n+]2C)cc1 (stereo not shown)	nadD	released PPi detection	–	–	–	6.3 ± 1.1
CCC(C(=O)c1ccc2c(c1)OCO2)N(C)C (stereo not shown)	SLC6A4	transporter uptake, inhibitor, radiometric	–	–	–	> 9.7
Sc1nc2ccccc2[nH]1	mbtI (Mycobacterium tuberculosis, UniProt P9WFX1)	–	–	–	–	58.8 ± 3.6
CCCC(C(=O)c1ccc2c(c1)OCO2)N1CCCC1 (stereo not shown)	5-hydroxytryptamine receptor 2C (HTR2C, Homo sapiens, UniProt P28335)	inositol phosphate, antagonist	–	–	–	> 1000
Ic1cncc(OC[C@@H]2CCN2)c1	Neuronal acetylcholine receptor; alpha4/beta2 (Homo sapiens, UniProt P17787+P43681)	ligand displacement, radioligand	–	–	–	0.0114
CCn1cc(C(=O)Nc2nnc(CC(C)C)s2)c(=O)c2cc(F)c(N3CCN(C(=O)c4ccco4)CC3)cc21	nadD	enzyme activity, inhibitor, released pyrophosphate	–	–	–	> 50
C[C@]12CC[C@@H](O)C[C@@H]1CC[C@@H]1[C@@H]2C(=O)C[C@]2(C)C(C=O)=CC[C@@H]12	GABAA receptor picrotoxin site	–	–	–	–	0.997 ± 0.187
CCn1cc(C(=O)NC(C)c2ccccc2)c(=O)c2cc(F)c(N3CCN(C(=O)c4ccco4)CC3)cc21 (stereo not shown)	nadD	enzyme activity, inhibitor, released pyrophosphate	–	–	–	2.5 ± 0.3
zantrin Z3	Cell division protein FtsZ (ftsZ, Bacillus subtilis, UniProt P17865)	GTPase activity, inhibitor	–	no Triton X-100	–	32
CCn1cc(C(=O)Nc2nc(C)cs2)c(=O)c2cc(F)c(N3CCN(C(=O)c4ccco4)CC3)cc21	nadD	enzyme activity, inhibitor, released pyrophosphate	–	–	–	> 50
O=c1[nH]c2ccccc2n1C1CCN(CCCC(c2ccc(F)cc2)c2ccc(F)cc2)CC1	Voltage-dependent T-type calcium channel subunit alpha-1H (CACNA1H, Homo sapiens, UniProt O95180)	calcium current, blocker, automated patch clamp	holding potential -90 mV	with: 60 s prepulse, -75 mV	–	8.9 ± 3.6
COC1C(O)C(n2ccc(=O)[nH]c2=O)OC1C(OC1OC(C(=O)NC2CCCCNC2=O)=CC(O)C1O)C(N)=O (stereo not shown)	bacterial RNA polymerase	enzyme activity, inhibitor	–	–	greater than highest tested	> 100
Cc1ccccc1OCc1n(CC(=O)OC2CC(C)CCC2C(C)C)c2ccccc2[n+]1C (stereo not shown)	nadD	released PPi detection	–	–	–	18.2 ± 2.6

Repeated from above:
Molecule	target	assay	test system	conditions	how to read	IC50 [µM]
CCn1cc(C(=O)Nc2nnc(CC(C)C)s2)c(=O)c2cc(F)c(N3CCN(C(=O)c4ccco4)CC3)cc21	nadD	enzyme activity, inhibitor, released pyrophosphate	–	–	–	> 50
CCCC(C(=O)c1ccc2c(c1)OCO2)N1CCCC1 (stereo not shown)	5-hydroxytryptamine receptor 2C (HTR2C, Homo sapiens, UniProt P28335)	inositol phosphate, antagonist	–	–	–	> 1000
